Experimental data gathered from unrelated publications.
Every numbered part comes from another study and shows a few of its results, in no order. Changes are numbered by the printed parent chain.

Sample 1
Target: ABI1, truncated, D143A, DHFR fusion (Arabidopsis thaliana)
Technique: DHFR PCA, deep sequencing
Sample: yeast
Setting: methotrexate growth selection, single substitutions
Added: (+)-ABA 0.032 µM
Baseline: wild-type fitted maximum
Reading: higher = stronger binding
Parent: PYL1, truncated, DHFR fusion (Arabidopsis thaliana); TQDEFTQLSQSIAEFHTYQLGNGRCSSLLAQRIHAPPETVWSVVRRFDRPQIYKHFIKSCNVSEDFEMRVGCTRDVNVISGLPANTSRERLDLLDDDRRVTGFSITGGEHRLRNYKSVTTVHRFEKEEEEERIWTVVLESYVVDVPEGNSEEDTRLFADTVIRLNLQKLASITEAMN; partner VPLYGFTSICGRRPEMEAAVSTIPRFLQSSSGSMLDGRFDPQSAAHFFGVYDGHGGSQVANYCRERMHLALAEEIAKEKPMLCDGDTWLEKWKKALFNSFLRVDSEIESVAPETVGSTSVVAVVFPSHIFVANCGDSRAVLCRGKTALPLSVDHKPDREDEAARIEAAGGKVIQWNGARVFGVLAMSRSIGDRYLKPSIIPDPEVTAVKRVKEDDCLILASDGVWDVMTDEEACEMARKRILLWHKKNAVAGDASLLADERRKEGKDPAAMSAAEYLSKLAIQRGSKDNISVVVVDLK
Substitution | relative binding score [%]
L166E | 4.18
T135M | -2.99
L8K | 1.73
G108R | 1.07
T154P | -2.08
L164A | 11.4
N177Q | 10.7
E38I | 0.144
E89H | -0.841
G148D | 7.78
I79F | 21.9

Sample 2
Target: CCNE1, cyclin fold, Cln2 fusion (human)
Technique: yeast growth competition, sequencing
Sample: yeast
Setting: weak parent motif
Baseline: not given
Reading: higher = stronger binding
Parent: WEE1 docking peptide (human); HKTFRKLRLFDTP
Substitution | normalised enrichment score
HKTFRKLRLFQTP [D11Q] | 1.77
HKTFRKLRLFCTP [D11C] | 1.5
HKTFQKLRLFDTP [R5Q] | 0.659
HMTFRKLRLFDTP [K2M] | -0.0763
HKTFRKLRQFDTP [L9Q] | 0.919
HKTFRKLRLFDQP [T12Q] | 0.0661
GKTFRKLRLFDTP [H1G] | 0.0855
HKTFRKLRLFDTN [P13N] | 0.957
HKYFRKLRLFDTP [T3Y] | -1.9
HKGFRKLRLFDTP [T3G] | 1.43
HKTFRKRRLFDTP [L7R] | -0.644
HKTFRKLRLFLTP [D11L] | 0.552
HKTFHKLRLFDTP [R5H] | 1.46
HKTFMKLRLFDTP [R5M] | 0.737
CKTFRKLRLFDTP [H1C] | 0.501
HKTTRKLRLFDTP [F4T] | 1.28
HKTFRKLMLFDTP [R8M] | 1.3
HKTFRKLRLFDRP [T12R] | 0.739
HKTFRKLRLGDTP [F10G] | -0.337
HKTFRKNRLFDTP [L7N] | 0.429

Sample 3
Target: Centromere-binding protein 1, full length, N-terminal tag (CBF1, Saccharomyces cerevisiae, UniProt P17106, residues 1-351)
Chain of UniProt P17106 (whole entry, looked up): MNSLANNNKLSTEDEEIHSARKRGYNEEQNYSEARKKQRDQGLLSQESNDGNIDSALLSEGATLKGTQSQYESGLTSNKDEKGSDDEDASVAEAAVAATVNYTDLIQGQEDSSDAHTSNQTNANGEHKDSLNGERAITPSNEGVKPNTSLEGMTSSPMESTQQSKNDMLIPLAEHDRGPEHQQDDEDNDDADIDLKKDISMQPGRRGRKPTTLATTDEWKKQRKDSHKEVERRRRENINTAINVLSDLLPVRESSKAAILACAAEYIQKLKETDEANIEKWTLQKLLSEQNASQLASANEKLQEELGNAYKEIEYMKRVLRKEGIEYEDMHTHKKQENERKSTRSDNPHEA
Technique: protein-binding microarray
Form: double-stranded DNA, one strand shown
Sample: in vitro
Concentration: 0.8 µM
Setting: whole 60-bp probe, no competitor
Reading: higher = stronger binding
Constant ends, left off below: … GTCTTGATTCGCTTGACGCTGCTG
Strand | fluorescence intensity
CTAATCTGTTAATTGAGCATGACATGAAAATTTTTC | 657 a.u.
GAAATCCATTTCAATCATGAGAAATGTTTCTTCTAG | 461 a.u.
CTACGGCAAATAAATCATCTCCTGAACCATTTTTTC | 546 a.u.
TGTACGAAGCTATATCACGTCCATATAGTAGTTAGG | 610 a.u.
GAATGTCGTTACCCGCACGTTGTGTTTTTTGAGTAG | 611 a.u.
CCTAACTACTATATGCACGTGGGATAGCTTCGTACA | 3650 a.u.
CTAAGGGTGCGCGGGCACGCAGGGTAAGAGCCGTTC | 475 a.u.
GAACATTTTATACATGACGGCCTCTAGTAATATTAG | 538 a.u.
GAACCCCTTTATGGTCCCACCACGCGTACTGTATAG | 575 a.u.
GAAGTATGCCAAGGCCTCGTGCATGTAGTGCGATAG | 550 a.u.
CTAATGTACTTCCCACATGTGCCACGACCGTTCTTC | 732 a.u.
CTAAGTAGCATACGTGATGTGCAAAAAATGCGCTTC | 851 a.u.
CTAGCATAACAGGATCACGGTTATCACCTGTTTTTC | 773 a.u.
GAAGCGTGTCCCCCTCACGTTTTTAATCATTTGTAG | 626 a.u.
CTACATGTATTGTTTCACATGAAATTTCGGCCATTC | 556 a.u.
GAAATTTGCAAACATCATGCTTTGATCTTTGAATAG | 559 a.u.
CTAAAATGGCGTGGAAATGTGATCAAAGGTAATTTC | 596 a.u.
CTAGAAAGAATGCTCAACGTGAGTATGATAACCTTC | 579 a.u.

Further values, each from its own experiment
Substance | target | assay | system | setting | scale | endpoint | result
PhoQ, residues 284 288 289 292 302 303 ASASEQ | PhoP, residues 12 14 15 18 19 LHATL (Escherichia coli, UniProt P23836) | Sort-seq, item: YFP reporter | E. coli | PhoQ-PhoP variant library, added: 10 µM Mg2+ | baseline: high Mg2+ state, higher = stronger signaling | fold induction | 17.1

Repeated from above (sample 2):
Substitution | normalised enrichment score
GKTFRKLRLFDTP [H1G] | 0.0855
HKTFRKLRLFDTN [P13N] | 0.957
HKYFRKLRLFDTP [T3Y] | -1.9
HKGFRKLRLFDTP [T3G] | 1.43
HKTFRKRRLFDTP [L7R] | -0.644
HKTFRKLRLFLTP [D11L] | 0.552
HKTFHKLRLFDTP [R5H] | 1.46
HKTFMKLRLFDTP [R5M] | 0.737
